Published values of several laboratories.
Every numbered part comes from another study and shows a few of its results, in no order. Changes are numbered by the printed parent chain.

Study 1 — technique: RNA Bind-n-Seq; molecule type: RNA; sample: in vitro; tested at: 20 nM; notes: 6-mer, flanks averaged, single round; together with: 150 mM KCl; relative to: input library; direction: higher = stronger binding; quantity: 6-mer enrichment (R)
Target: TAR DNA-binding protein 43, full length, His tag (TARDBP, Homo sapiens, UniProt Q13148, residues 1-414)
UGCACG: 0.971
UCUGAU: 0.568
UGCACA: 0.71
AUGUCC: 0.629
UGAGCG: 1.55
UACUUU: 0.602
GACACG: 1.06
AUACCU: 0.574

Study 2 — technique: aptamer microarray, sandwich; molecule type: DNA with 2'F-ANA; sample: in vitro; tested at: 200 nM; together with: Cy3 exosite-II aptamer, 400 nM; direction: higher = stronger binding; quantity: mean fluorescence intensity; strand: GGTTGGTGTGGTTGG
Target: Prothrombin, mature alpha-thrombin (F2, Homo sapiens, UniProt P00734)
Notes: whole 15-mer aptamer, many near background
2'F-ANA at 1 5 8 11 13 15: 52 a.u.
2'F-ANA at 1 2 3 4 6 7 8 13 14: 68.4 a.u.
2'F-ANA at 2 3 5 6 7 9 10 11 13 14 15: 49.1 a.u.
2'F-ANA at 2 3 4 5 7 8 9 10 11 14: 65.9 a.u.
2'F-ANA at 2 6 7 10 11 14 15: 126 a.u.
2'F-ANA at 2 4 7 10 11 12: 120 a.u.
2'F-ANA at 4 9 13 15: 197 a.u.
2'F-ANA at 1 3 5 6 8 9 10 11 12 13 14: 51.3 a.u.

Study 3 — technique: RNA Bind-n-Seq; molecule type: RNA; sample: in vitro; tested at: 365 nM; relative to: no-protein control; direction: higher = stronger binding; quantity: RBNS enrichment (R)
Target: RNA binding protein fox-1 homolog 2, RRM domain, GST-SBP tag (RBFOX2, Homo sapiens, UniProt O43251-10, residues 100-194)
Notes: natural RNA segment, single round, ends assumed
All sequences stand within: GGGAGUUCUACAGUCCGACGAUC … UGGAAUUCUCGGGUGCCAA
Residues (chain): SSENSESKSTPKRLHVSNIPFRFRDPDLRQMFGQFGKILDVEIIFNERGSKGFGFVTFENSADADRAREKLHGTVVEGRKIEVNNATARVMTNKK
UUUGGCUUUGCUGCUCUGAUGAAGUUGCUCAGAUGAGCUGUGGCUGCCAGAGAACAAGGUGUAUGUUCUUGGGAAGCAGGUCUAUGCCAGUGGGCUGUUUUGCCUUGUUU: 3.27
GGAACACAGCCGCUCCCCUCUGCUCUGCACCCCACUCGUGGGGGAACACAGCCGCUCCCCUCUGCUCUGCACCCCACUCGUGGGGGAACACAGCUGCAGCCCACCGCGGA: 0.237
AAGAGUGUGCUUGUCAUCUGCCACUUUCGGGAGGGUGGAUCCACUGUGCAGGAGUGGCCGGGGAAGCUGGCAGCACUCAGUGAGGCCGCCCGGCACACAAGGCACGUUUG: 0.6
AGUGUCCCACCCCUGGAGGGUUAAUCCCUAUCUCUUCCUUUUGACCCCUGACUUGUUCUGGCAAGGAACAGAAGUAAGGGUGUGAUCCAGCCCGUCCCCCUGGGACCCAU: 0.338
GCCCAAAGGCGCAGCUCUGAGUUCAAAGCCAAAUGUCCCCACUACCCCAGGGAUCCCCCAGCUCCCCCAGCCCCUGGCUUCCUGACCCUGCGCCUCACCCUCAGACUGGU: 0.575
ACUGUGGACGCCGGGCACUGUUGGAAACGAAGUUUUGUAAUUUCUGCCUGAUUCACCCUUAUUGGCAUGUGAGCCAUUGGGAUGCCAUUGAGAAUCAUGAUGAACUUUGG: 1.2
UGGUUGUUCUUGGGUUCUUUUGUCUUGUCAGAGCUCUUCUAUAACCUCGCUCUAAUGGCUUAACAGUUGUUCUGGGUGGAAACGUCCCCUCAUUUGAAUGCUCCUCUAAA: 10.3
UUUAAGAAAGUUGGAAAGGUCUCUCCUCCCAAGGACAGUGGCUGGAAGAGUUGGGGCACAGCCAGUUCUGAAUGUUGGUGGAGGGUGUAGUGGCUUUUUGGCUCAGCAUC: 1.06

Further values, each from its own experiment
Parent: viral docking peptide; KGVKRKLFAEDSS; partner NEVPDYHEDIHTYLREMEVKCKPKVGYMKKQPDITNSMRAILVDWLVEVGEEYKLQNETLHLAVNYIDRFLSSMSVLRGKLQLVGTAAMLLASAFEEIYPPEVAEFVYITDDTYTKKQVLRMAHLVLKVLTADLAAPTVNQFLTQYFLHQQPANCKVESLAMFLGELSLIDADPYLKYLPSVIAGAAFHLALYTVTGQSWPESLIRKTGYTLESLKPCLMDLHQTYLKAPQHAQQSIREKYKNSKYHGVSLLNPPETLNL
KGVKRKLLAEDSS [F8L] — normalised enrichment score (CCNA2, cyclin fold, Cln2 fusion (human); yeast growth competition, sequencing; yeast; strong parent motif; relative to: not given, higher = stronger binding): 1.72

Repeated from above (study 2):
2'F-ANA at 1 2 3 4 6 7 8 13 14: 68.4 a.u.
2'F-ANA at 2 3 5 6 7 9 10 11 13 14 15: 49.1 a.u.
